Experimental data from different studies.
Numbers after ± are the reported error. Where no end group is shown, it is not given here. Ends that are not written are not given here. [ ]: non-standard residue; d: D form.
B1: CRYBB1 1-234 (Homo sapiens, UniProt P53674); sequence looked up; chain MSQAAKASASATVAVNPGPDTKGKGAPPAGTSPSPGTTLAPTTVPITSAKAAELPPGNYRLVVFELENFQGRRAEFSGECSNLADRGFDRVRSIIVSAGPWVAFEQSNFRGEMFILEKGEYPRWNTWSSSYRSDRLMSFRPIKMDAQEHKISLFEGANFKGNTIEIQGDDAPSLWVYGFSDRVGSVKVSSGTWVGYQYPGYRGYQYLLEPGDFRHWNEWGAFQPQMQSLRRLRD
B2: dinB (Escherichia coli, UniProt Q47155); sequence looked up; chain MRKIIHVDMDCFFAAVEMRDNPALRDIPIAIGGSRERRGVISTANYPARKFGVRSAMPTGMALKLCPHLTLLPGRFDAYKEASNHIREIFSRYTSRIEPLSLDEAYLDVTDSVHCHGSATLIAQEIRQTIFNELQLTASAGVAPVKFLAKIASDMNKPNGQFVITPAEVPAFLQTLPLAKIPGVGKVSAAKLEAMGLRTCGDVQKCDLVMLLKRFGKFGRILWERSQGIDERDVNSERLRKSVGVERTMAEDIHHWSECEAIIERLYPELERRLAKVKPDLLIARQGVKLKFDDFQQTTQEHVWPRLNKADLIATARKTWDERRGGRGVRLVGLHVTLLDPQMERQLVLGL
B3: recO (Bacillus subtilis, UniProt P42095); chain MLTKCEGIVLRTNDYGETNKIVTLLTREHGKIGVMARGAKKPNSRLSAVSQPFLYGSFLMQKTSGLGTLQQGEMILSMRGIREDLFLTAYAAYVAELVDRGTEEKKPNPYLFEFILESLKQLNEGTDPDVITFIVQMKMLGVMGLYPELNHCVHCKSQDGTFHFSVRDNGFICHRCFEKDPYRIPIKPQTARLLRLFYYFDLSRLGNVSLKEETKAELKQVIDLYYEEYSGLYLKSKRFLDQMESMKHLMGENKS
B4: Plau amino terminal fragment 21-155 (Mus musculus, UniProt P06869); conjugated to PEG iron oxide nanoparticles; sequence looked up; chain GSVLGAPDESNCGCQNGGVCVSYKYFSRIRRCSCPRKFQGEHCEIDASKTCYHGNGDSYRGKANTDTKGRPCLAWNAPAVLQKPYNAHRPDAISLGLGKHNYCRNPDNQKRPWCYVQIGLRQFVQECMVHDCSLS
B5: MIF4GD R202A (Homo sapiens, UniProt A9UHW6); sequence looked up; chain MGEPSREEYKIQSFDAETQQLLKTALKDPGAVDLEKVANVIVDHSLQDCVFSKEAGRMCYAIIQAESKQAGQSVFRRGLLNRLQQEYQAREQLRARSLQGWVCYVTFICNIFDYLRVNNMPMMALVNPVYDCLFRLAQPDSLSKEEEVDCLVLQLHRVGEQLEKMNGQRMDELFVLIRDGFLLPTGLSSLAQLLLLEIIEFAAAGWKTTPAAHKYYYSEVSD
B6: LRP6 repeats 1-2 (Homo sapiens); chain APLLLYANRRDLRLVDATNGKENATIVVGGLEDAAAVDFVFSHGLIYWSDVSEEAIKRTEFNKTESVQNVVVSGLLSPDGLACDWLGEKLYWTDSETNRIEVSNLDGSLRKVLFWQELDQPRAIALDPSSGFMYWTDWGEVPKIERAGMDGSSRFIIINSEIYWPNGLTLDYEEQKLYWADAKLNFIHKSNLDGTNRQAVVKGSLPHPFALTLFEDILYWTDWSTHSILACNKYTGEGLREIHSDIFSPMDIHAFSQQRQPNATNPCGIDNGGCSHLCLMSPVKPFYQCACPTGVKLLENGKTCKDGATELLLLARRTDLRRISLDTPDFTDIVLQLEDIRHAIAIDYDPVEGYIYWTDDEVRAIRRSFIDGSGSQFVVTAQIAHPDGIAVDWVARNLYWTDTGTDRIEVTRLNGTMRKILISEDLEEPRAIVLDPMVGYMYWTDWGEIPKIERAALDGSDRVVLVNTSLGWPNGLALDYDEGKIYWGDAKTDKIEVMNTDGTGRRVLVEDKIPHIFGFTLLGDYVYWTDWQRRSIERVHKRSAEREVIIDQLPDLMGLKATNVHRVIGSNPCAEENGGCSHLCLYRPQGLRCACPIGFELISDMKTCIVP
B7: BicD F684I (Drosophila melanogaster, UniProt P16568); chain MSSASNNGPSADQSVQDLQMEVERLTRELDQVSSASAQSAQYGLSLLEEKSALQQKCEELETLYDNTRHELDITQEALTKFQTSQKVTNKTGIEQEDALLNESAARETSLNLQIFDLENELKQLRHELERVRNERDRMLQENSDFGRDKSDSEADRLRLKSELKDLKFRETRMLSEYSELEEENISLQKQVSSLRSSQVEFEGAKHEIRRLTEEVELLNQQVDELANLKKIAEKQMEEALETLQGEREAKYALKKELDGHLNRESMYHISNLAYSIRSNMEDNASNNSDGEEENLALKRLEADLSTELKSPDGTKCDLFSEIHLNELKKLEKQLESMESEKTHLTANLREAQTSLDKSQNELQNFMSRLALLAAHVDALVQLKKQIDVKEQGKEGGQKKDELEQQLRALISQYANWFTLSAKEIDGLKTDIAELQKGLNYTDATTTLRNEVTNLKNKLLATEQKSLDLQSDVQTLTHISQNAGQSLGSARSTLVALSDDLAQLYHLVCTVNGETPTRVLLDHKTDDMSFENDSLTAIQSQFKSDVFIAKPQIVEDLQGLADSVEIKKYVDTVSDQIKYLKTAVEHTIDMNKHKIRSEGGDALEKVNTEEMEELQEQIVKLKSLLSVKREQIGTLRNVLKSNKQTAEVALTNLKSKYENEKIIVSDTMSKLRNELRLLKEDAATISSLRAMFAARCEEYVTQVDDLNRQLEAAEEEKKTLNQLLRLAVQQKLALTQRLEEMEMDREMRHVRRPMPAQRGTSGKSSFSTRPSSRNPASSNANPF
B8: cipA 183-322 (Clostridium thermocellum, UniProt Q06851); sequence looked up; chain GVVVEIGKVTGSVGTTVEIPVYFRGVPSKGIANCDFVFRYDPNVLEIIGIDPGDIIVDPNPTKSFDTAIYPDRKIIVFLFAEDSGTGAYAITKDGVFAKIRATVKSSAPGYITFDEVGGFADNDLVEQKVSFIDGGVNVG

`B1 (CRYBB1 1-234)`: “subunit exchange rate” 0.0348 ± 0.0052 min⁻¹ (CRYBA1, Alexa Fluor 488 label (Homo sapiens, UniProt P05813); FRET; pH 7.5, 37 °C, 100 mM NaCl).
`RASA1 minimal catalytic domain`: “GTP hydrolysis rate” 0.00194 s⁻¹ (HRAS 1-166, S-glutathionylated Cys118 (Homo sapiens, UniProt P01112); GAP-mediated GTP hydrolysis; 25 °C).
For `FAN1 fragment R507A (Homo sapiens)`, “nuclease cleavage stimulation” read 2 fold (PCNA (Homo sapiens, UniProt P12004); nuclease activity, activator; reference: without PCNA, higher = more cleavage).
`CALM3 (Homo sapiens, UniProt P0DP25)`: “slow recovery time constant” 60.1 ms (SCN5A peptide truncated IG peptide (Homo sapiens, UniProt Q14524); whole-cell patch clamp; tsA201; with: Ca2+).
For `B2 (dinB)`, the koff was 0.00713 s⁻¹ (dnaN 1-366 (Escherichia coli, UniProt P0A988); SPR; pH 7.4, NaCl 150 mM).
`B3 (recO)` gave a kcat of 0.285 s⁻¹ (ssbA (Bacillus subtilis, UniProt P37455); RecA ATP hydrolysis, steady-state kinetics; with: RecO).
`B4` — result for “relative iron level”: 7 fold (Plaur (Mus musculus, UniProt P35456); iron analysis; orthotopic PANC02 tumours; 24 hours, in vivo, i.p. delivery; reference: non-targeted BSA-PEG-IONPs, higher = more nanoparticle in tumour).
The relative KD of `B5 (MIF4GD R202A)` is reported as > 100 (SLBP, phosphorylated, multiple sites (Homo sapiens, UniProt Q14493); SPR; pH 7.4, 25 °C, NaCl 150 mM; reference: wild type, higher = weaker binding).
`COLGALT1 fragment (Homo sapiens)` gave a cross-link abundance of 7 fold (PLOD3 (Homo sapiens, UniProt O60568); cross-linking; reference: Trp158Arg mutant, higher = more cross-link).
`GABBR1 GABAB1b isoform, full length (Homo sapiens)`: “cell surface expression” 77% (GABBR2 R714A (Homo sapiens, UniProt O75899); anti-Flag M1 on intact cells; reference: WT/WT heterodimer, higher = more surface expression).
The Kd of `B6 (LRP6 repeats 1-2)` is reported as 66 nM (DKK1 31-142 (Homo sapiens, UniProt O94907); ITC; pH 8.0, 25 °C, NaCl 200 mM, apparent).
For `terlipressin`, the intrinsic activity was 41% (AVPR1A (Homo sapiens, UniProt P37288); intracellular calcium; reference: maximal activity of AVP, higher = greater efficacy).
`CSF2 residues 3-end (Homo sapiens)` — result for “lower KD of low-affinity site”: 83% (CSF2RB (Homo sapiens, UniProt P32927); radioligand binding; TF-1; reference: full-length GM-CSF, higher = tighter binding).
With `CGA/LHB (Equus caballus)` the EC50 was 0.0217 µg/mL (LHCGR M410T (eel); cAMP response, agonist, HTRF; CHO-K1; 30 min, room temperature).
The EC50 of `ARTK(Me3)QTARKSTGGKAPRK (histone H3 residues 1-18; K4me3)` is reported as 6300 nM (RAG2 397-493 (Homo sapiens, UniProt P55895); displacement of biotinylated peptide, competitor, AlphaScreen; peptide).
With `B7 (BicD F684I)` the run length was 3.3 µm (DYNC1H1/DYNC1I2/DYNC1LI2/DYNLT1/DYNLRB1/DYNLL1 (Homo sapiens); single-molecule TIRF).
`B8 (cipA 183-322)` — result for “molecule per partner”: 0.94 ± 0.002 (celS dockerin module 673-739, 15N label (Clostridium thermocellum, UniProt A3DH67); ITC; pH 4.8, 298 K, KCl 100 mM, single-site model, with: CaCl2 5 mM).
For `EDGGSFWYRAMKALYG (designed peptide)`, the IC50 was 16 ± 7 nM (CIB1 (Homo sapiens, UniProt Q99828); competition with peptide, competitor, TR-FRET; peptide).
For `RCVRLHESCLGQQVPCCDPCATCYCRFFNAFCYCRKLGTAMNPCSRT (AGRP 86-132 (Homo sapiens, UniProt O00253); sequence looked up)`, “inverse agonist EC50” read 20 nM (MC4R D189S (Homo sapiens, UniProt P32245); cAMP, inverse agonist, AlphaScreen; HEK293; apparent).
With `CTNNB1, tyrosine phosphorylated (Mus musculus, UniProt Q02248)` the relative ratio was 1.2 (Cdh1 (Mus musculus); co-IP; keratinocytes, lysate; with: tyrosine phosphatase 25 mU; reference: phosphatase with inhibitors, lower = less molecule bound).
For `SOCS3/ELOB/ELOC SOCS3 23-end (Mus musculus)`, the IC50 increase was 10 fold (JAK2 JH1 836-1132, pY1007/pY1008 (Mus musculus, UniProt Q62120); JAK2 kinase inhibition; with: STAT5b Y+8 substrate; reference: wild-type SOCS3, higher = weaker inhibition).
With `EIWIAQELRXIGDXFNAYYA (BIM BH3 stapled peptide 145-164; N-terminal FITC-βAla, hydrocarbon staple S5 positions 10/14, C-terminal amide)` the EC75 was 200 nM (MCL-1 ΔNΔC (Homo sapiens); fluorescence polarisation; peptide; 20 min, with: FITC-BIM SAHBA2 50 nM).
With `acpP, triclosan-pantetheine probe on Ser (Escherichia coli, UniProt P0A6A8)` the ΔH was -56.1 ± 6.38 kcal/mol (fabI 1-262 (Escherichia coli, UniProt P0AEK4); ITC).
For `ANK2 fragment (Homo sapiens)`, the koff was 0.0032 s⁻¹ (SCN2A 1080-1203 E1111A, CK2 phosphorylated (UniProt P04775); SPR; pH 7.4, 25 °C, NaCl 150 mM).
`Prdm16 (Mus musculus, UniProt A2A935)` — result for “luciferase reporter activity”: 25 fold (Znf516 (Mus musculus, UniProt Q7TSH3); UCP1 promoter reporter; 293FT; with: Zfp516 with PRDM16; higher = more promoter activity).
For `SERPINC1 R45E/R46E/K114E/R129E (Homo sapiens)`, the k2 was 3600 M⁻¹ s⁻¹ (coagulation factor Xa (UniProt P00742); steady-state kinetics; room temperature, no heparin).
`RPKRPTTLNLF (MAPK8IP1 residues 157-167 (Homo sapiens))` gave an IC50 of 500 ± 20 nM (MAPK10 JNK3α1, pT221/pY223 (Homo sapiens, UniProt P53779-2); displacement of labelled peptide, competitor, FRET; peptide; pH 7.4, NaCl 150 mM).
The Ki of `TIMP2 N-terminal domain S4P/I35V/S68N/V71I/H97R` is reported as 0.15 nM (MMP9 catalytic domain, no fibronectin 107-215 (Homo sapiens, UniProt P14780); fluorogenic substrate cleavage, inhibitor, enzyme inhibition assay; apparent).
The ΔH of `ARGR[pT]PP[pS]LGPQDE[pS]C[pT][pT]A[pS][pS][pS]LAKDTSS (V2Rpp 343-371 (Homo sapiens); phosphorylated; pT = C[C@@H](OP(=O)(O)O)[C@H](N)C(=O)O; pS = N[C@@H](COP(=O)(O)O)C(=O)O)` is reported as -20.3 ± 0.4 kcal/mol (Arrb1 (Rattus norvegicus, UniProt P29066); ITC; peptide).
